Published values pooled from the literature.
Numbered parts are unrelated; each lists some results of a single study.

Series 1
Target: Protein C-ets-1 (ETS1, Homo sapiens, UniProt P14921, residues 1-441, K379A, full length assumed)
Chain of UniProt P14921 (whole entry, unmodified, looked up): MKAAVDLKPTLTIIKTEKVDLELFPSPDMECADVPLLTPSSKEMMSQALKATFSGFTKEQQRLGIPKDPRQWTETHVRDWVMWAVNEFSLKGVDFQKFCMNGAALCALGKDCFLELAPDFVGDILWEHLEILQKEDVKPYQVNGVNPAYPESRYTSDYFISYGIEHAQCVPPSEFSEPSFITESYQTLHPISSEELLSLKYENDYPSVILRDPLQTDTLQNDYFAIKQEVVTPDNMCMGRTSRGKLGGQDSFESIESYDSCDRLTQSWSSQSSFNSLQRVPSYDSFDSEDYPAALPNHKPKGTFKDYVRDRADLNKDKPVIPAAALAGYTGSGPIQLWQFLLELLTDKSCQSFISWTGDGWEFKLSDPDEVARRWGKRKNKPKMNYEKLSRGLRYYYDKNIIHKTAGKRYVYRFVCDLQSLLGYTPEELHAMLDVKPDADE
Technique: protein-binding microarray
Form: double-stranded DNA, one strand shown
Matrix: in vitro
Tested at: not given
Notes: k-mer, scored over probes, only values ≥0.25
Direction: higher = stronger binding
Measurement: E-score
CATAACAA: 0.255
CGCATTAC: 0.258
AGACCGGC: 0.275
CGGGGAAC: 0.383

Series 2
Target: Interferon regulatory factor 7, full length, phosphomimetic (IRF7, Homo sapiens, UniProt Q92985, residues 1-503, S471D/S472D/S475D/S476D/S477D/S483D/S484D/S487D)
Chain of UniProt Q92985 (whole entry, unmodified, looked up): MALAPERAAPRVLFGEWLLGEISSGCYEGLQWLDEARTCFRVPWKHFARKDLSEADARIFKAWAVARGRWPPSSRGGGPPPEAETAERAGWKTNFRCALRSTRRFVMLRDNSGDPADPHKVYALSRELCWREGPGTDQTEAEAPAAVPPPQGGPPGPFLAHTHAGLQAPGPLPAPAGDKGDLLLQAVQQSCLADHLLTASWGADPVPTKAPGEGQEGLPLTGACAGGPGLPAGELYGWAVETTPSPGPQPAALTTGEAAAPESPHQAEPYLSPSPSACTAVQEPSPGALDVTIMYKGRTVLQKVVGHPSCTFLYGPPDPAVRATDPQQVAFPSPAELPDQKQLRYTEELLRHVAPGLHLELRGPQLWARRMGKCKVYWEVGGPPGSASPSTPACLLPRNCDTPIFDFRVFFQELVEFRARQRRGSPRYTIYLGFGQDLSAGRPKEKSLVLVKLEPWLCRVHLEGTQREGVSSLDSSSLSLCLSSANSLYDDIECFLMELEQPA
Technique: protein-binding microarray
Form: double-stranded DNA, one strand shown
Matrix: in vitro
Tested at: 2200 nM top
Notes: 60-bp whole probe
Added: salmon DNA 0.4 mg/ml
Relative to: random background probes
Direction: higher = stronger binding
Measurement: fitted relative affinity
GCCTAGCACGACGAACAGGGGACTGGAGACGTGCTAGTCTTGATTCGCTTGACGCTGCTG: -0.0211 z-score
GCCTAGCACGACGATCTCATTATCGAGACGTGCTAGGTCTTGATTCGCTTGACGCTGCTG: 0.532 z-score
GCCTAGCACGACGATATCGGTTTCGAGACGTGCTAGGTCTTGATTCGCTTGACGCTGCTG: 3.24 z-score
GCCTAGCACGACGATTTCGGGCTTCGAGACGTGCTAGTCTTGATTCGCTTGACGCTGCTG: 1.36 z-score

Series 3
Target: Sal-like protein 4, full length isoform B (SALL4, Homo sapiens, UniProt Q9UJQ4-2, residues 1-616)
Technique: universal PBM
Form: double-stranded DNA, one strand shown
Matrix: in vitro
Tested at: not given
Notes: 8-mer, flanks averaged, mean of replicates
Direction: higher = stronger binding
Measurement: E-score
Target sequence (chain): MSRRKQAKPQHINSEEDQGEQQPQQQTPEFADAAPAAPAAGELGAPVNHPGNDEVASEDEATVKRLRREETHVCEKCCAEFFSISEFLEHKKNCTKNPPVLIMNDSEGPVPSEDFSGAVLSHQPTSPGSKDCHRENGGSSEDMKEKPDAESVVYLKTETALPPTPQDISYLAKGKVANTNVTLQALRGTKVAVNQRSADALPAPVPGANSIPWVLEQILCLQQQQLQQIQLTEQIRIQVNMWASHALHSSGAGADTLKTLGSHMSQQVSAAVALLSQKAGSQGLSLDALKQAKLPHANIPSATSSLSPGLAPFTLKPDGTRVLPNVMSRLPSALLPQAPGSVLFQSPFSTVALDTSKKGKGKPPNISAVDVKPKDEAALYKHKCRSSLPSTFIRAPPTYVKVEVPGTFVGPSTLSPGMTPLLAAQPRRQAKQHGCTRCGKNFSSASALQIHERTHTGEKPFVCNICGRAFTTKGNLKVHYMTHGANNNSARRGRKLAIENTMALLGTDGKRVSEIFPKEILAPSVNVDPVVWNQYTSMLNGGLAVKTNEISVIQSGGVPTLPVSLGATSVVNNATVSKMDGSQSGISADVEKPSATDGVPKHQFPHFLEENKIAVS
GATATAGC: 0.242
ATAGTACG: 0.154
CGGTCAAA: 0.0499
GAATGCAC: -0.0473
ACACTTAG: 0.113
CGGACAGA: -0.245

Mixed results
PhoQ, residues 284 288 289 292 302 303 NLALSC  fold induction (PhoP, residues 12 14 15 18 19 LHHVQ (Escherichia coli, UniProt P23836); Sort-seq, refers to: YFP reporter; E. coli; PhoQ-PhoP variant library, added: 10 µM Mg2+; relative to: high Mg2+ state, higher = stronger signaling): 0.638

For quick reference, copied from above (series 3):
CGGTCAAA: 0.0499
